# Assay results pooled from the literature.
# Parts stem from different laboratories: compare values within a part only.

# Set 1
# Target: RING finger protein unkempt homolog, zinc fingers 1-6, GST-SBP tag (UNK, Homo sapiens, UniProt Q9C0B0, residues 30-357)
# Chain of UniProt Q9C0B0 (30-357, looked up): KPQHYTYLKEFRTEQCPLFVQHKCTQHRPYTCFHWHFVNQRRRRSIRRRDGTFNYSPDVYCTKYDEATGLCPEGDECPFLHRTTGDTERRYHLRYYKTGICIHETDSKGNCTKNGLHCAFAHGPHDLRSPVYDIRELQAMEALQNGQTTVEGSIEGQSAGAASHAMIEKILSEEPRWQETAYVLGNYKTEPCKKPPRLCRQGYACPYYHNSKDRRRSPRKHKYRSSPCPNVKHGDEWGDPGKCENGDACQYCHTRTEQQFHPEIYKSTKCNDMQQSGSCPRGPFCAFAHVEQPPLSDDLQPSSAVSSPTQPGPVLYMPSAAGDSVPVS
# Method: RNA Bind-n-Seq
# Form: RNA
# Medium: in vitro
# Tested at: not given
# Setting: RNA with constant flanks, human and mouse sites, ends assumed
# Reference: input RNA pool
# Direction: higher = stronger binding
# Shared flanks, not repeated: GGGAGUUCUACAGUCCGACGAUC … CAACAGAGGAUUGAGCAUCA
Strand,bound/input enrichment [ratio]
AACACAUGGCAGUUCAACUUCAAGUUCAACCUGACAGAGGAUAUGUACUCCCAGGAUUCCAUAGAUCUGCUUGCAAACUCAGGGCUGCAGUUCCAGAAACACGAGGAGGAAGGGAUCGAU,0.11
GCUCCUCCCCGCUCUGCAGCCUGGGGACACUGGGCUGGGACCAGAAUCCAGCUUUCUUUUAAAACUCUCAGUGUAACUGUAUCCCGUGACAUUUCAUUUUUUUUAAAUAGUGUAUUUUUU,3.15
CCAGACAAGAUCGAUUAUUUCUCCCUUGAUCCCCUCAACAUCAAACAGAACAACAAGCAGGCUUUUGAUGGCUUCGCUGCCCUGGGUGUGUCUCGGCUGCUCGAGCCGGCGGACAUGGUA,0.191
GAAAAUCACCCUUAUCAAACAGCUUGCCAAAAGUGUCAUCGUGGGCUGGGAGCCCCCUGCUGUGCCUCCCGGCUGGGGCACCGUGAGCAGUUAUAAUGUGCUGGUGGACAAAGAGACACG,0.305
GGGAGCCCCAUUGCCUCUGUCUCCUUCGGUGCCUGCAGAGACUUUGUCUUCCGGCAUAAGGAUUCCCGUGGGAAAAGCCCCUCCAGGAGGGUGGCGGUGGUCAGGCUGCCGCUGGCCCAC,0.101
GUGGGUGCCUCGGCUCGGCUUUCCCCGGCGCUGGCUGGGCUCAGCGGCCCCUGAGCCCAAGCGACACACGCCCCGCGGUCCCCGAUCCGGCCCCUGGGAGAGCCGCGCCGUUCUGGAACC,0.187
UACUCGCCCACCUCUCCCAGCUACUCGCCCACCUCUCCCAGCUACUCACCCACUUCCCCUAGCUACUCGCCCACUUCCCCUAGCUACUCGCCAACGUCUCCCAGCUACUCACCGACAUCU,0.801
AUGAGAAACAGUAUCUUAGCCCAAGUUCUGGAUCAGUCAGCCCGGGCCAGAUUAAGUAACUUAGCACUUGUAAAGCCUGAAAAAACUAAAGCAGUGGAGAACUACCUUAUACAGAUGGCG,0.28

# Set 2
# Organism: SARS-CoV-2
# Read-out: cytopathic effect
# Cell line: Vero E6
# Tested at: 10 µM
Compound,inhibition [%]
CCC[C@H](NC(=O)[C@@H]1[C@H]2CCC[C@H]2CN1C(=O)[C@@H](NC(=O)[C@@H](NC(=O)c1cnccn1)C1CCCCC1)C(C)(C)C)C(=O)C(=O)NC1CC1,-0.44
O=C(O)CCCCCCCCCCCCCCc1ccc(I)cc1,1.3
CCc1ccc(/C=C/C(=O)Nc2ccc(C(C)=O)cc2)o1,-1.2

# Set 3
# Target: Centromere-binding protein 1, full length, N-terminal tag (CBF1, Saccharomyces cerevisiae, UniProt P17106, residues 1-351)
# Chain of UniProt P17106 (whole entry, looked up): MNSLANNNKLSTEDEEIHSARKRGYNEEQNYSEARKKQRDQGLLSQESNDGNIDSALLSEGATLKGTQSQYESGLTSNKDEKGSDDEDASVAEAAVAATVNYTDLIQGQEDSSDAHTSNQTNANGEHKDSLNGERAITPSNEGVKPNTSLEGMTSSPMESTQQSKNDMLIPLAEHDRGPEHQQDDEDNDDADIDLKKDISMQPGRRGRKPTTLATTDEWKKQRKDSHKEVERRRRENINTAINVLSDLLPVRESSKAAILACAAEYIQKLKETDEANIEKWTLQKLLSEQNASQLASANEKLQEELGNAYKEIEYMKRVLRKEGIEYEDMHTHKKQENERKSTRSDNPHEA
# Method: protein-binding microarray
# Form: double-stranded DNA, one strand shown
# Medium: in vitro
# Tested at: 0.8 µM
# Setting: whole 60-bp probe, no competitor
# Direction: higher = stronger binding
# Shared flanks, not repeated: … GTCTTGATTCGCTTGACGCTGCTG
Strand,fluorescence intensity [a.u.]
CTAAAGAAGCCGCATCACCTTAAACACTAACCATTC,515
CTATTGGAATGATATCACGTTCGAAGTCTCTGTTTC,781
GAAAGTTTTTCATTTCACGATATTTAGCTGCAGTAG,621
CTACGCTTGACTCCACTCGTGAGTCATGTTTGGTTC,583
CTAATCACGATATATCACGATACACGACTCTCCTTC,867
GAATCATGCTGCCGGCACGTAGTACTTGCAGCTTAG,505
GAACCCAAAGGGTTGCACGTTCTCTTCCGTCGATAG,608
CTAACACGCATTTACCACGAGAAGACAGCAATATTC,597

# Set 4
# Cell line: HEK-293T
# Organism: VSV pseudotyped with SARS-CoV-2 spike
# Tested at: 10 µM
# Time: 16 h
Structure (SMILES),pseudovirus infection
CN(C)C(=O)C(CCN1CCC(O)(c2ccc(Cl)cc2)CC1)(c1ccccc1)c1ccccc1,30.4%
CNCC[C@H](Oc1cccc2ccccc12)c1cccs1,27.1%
CN1[C@@H]2CC[C@H]1C[C@@H](OC(=O)C(CO)c1ccccc1)C2 (stereo partly drawn),79.9%
Oc1ccc(O)cc1,90.8%
CC(C)c1c(C(=O)Nc2ccccc2)c(-c2ccccc2)c(-c2ccc(F)cc2)n1CC[C@@H](O)C[C@@H](O)CC(=O)O,112%

# Set 5
# Target: Replicase polyprotein 1ab, nsp13 helicase (rep, Severe acute respiratory syndrome coronavirus 2, UniProt P0DTD1)
# Action: inhibitor
# Tested at: 20 µM
SMILES,inhibition
CC1(C)CN(C(=O)c2ccc(-c3cccc4nc(NC(=O)C5CC5)nn34)cc2)C1,5.75%
O=C(OC(C(F)(F)F)C(F)(F)F)N1CCN(Cc2cccc(Oc3ccccc3)c2)CC1,1.61%
Cn1cnc(N)c2ncnc1-2,6.61%
Cc1c(F)cc(C(=O)NC2CC2)cc1-c1c(F)cn2c(C(C)(C)C)nnc2c1F,0.71%
COc1ccc2c(c1)c(C1=C(c3c[nH]c4ccccc34)C(=O)NC1=O)cn2CCCN(C)C,22.3%
CC(C)(C)N1CCC(c2ccccc2)(c2ccccc2)CC1,-6.35%
CN1C(=O)N(c2cc(Cl)cc(Cl)c2)C(=O)[C@@]1(C)Cc1ccc(Br)cc1,-0.49%
COc1ccc2c(C)nc(Nc3nc(C)c(C)c(=O)[nH]3)nc2c1,8.03%
c1cc2c(cc1[C@H]1OC[C@H]3[C@@H]1CO[C@@H]3c1ccc3c(c1)OCO3)OCO2,-2.15%
O=S(=O)(c1ccccc1)N(CC(F)(F)F)c1ccc(C(O)(C(F)(F)F)C(F)(F)F)cc1,-0.96%
CC(C)C(N)=O,4.41%
CC(C)CCC[C@@H](C)[C@H]1CC[C@H]2[C@@H]3CC=C4C[C@@H](O)CC[C@]4(C)[C@H]3CC[C@]12C,2.34%
CC(C)[C@@H](C)/C=C/[C@@H](C)[C@H]1CC[C@H]2C3=CC=C4C[C@@H](O)CC[C@]4(C)[C@H]3CC[C@]12C,0.52%
CCOc1cc([C@@H](CS(C)(=O)=O)N2C(=O)c3cccc(NC(C)=O)c3C2=O)ccc1OC,8.65%
CN(C)CC[C@@H](c1ccc(Cl)cc1)c1ccccn1,7.09%
CC(=O)CCCCn1c(=O)c2c(ncn2C)n(C)c1=O,3.67%
CN1CCC[C@H]1c1cccnc1,4.65%
COc1ccc2c(C(=S)N(C)CC(=O)O)cccc2c1C(F)(F)F,-6.06%
CCCCN(CCCC)C(=O)CN1C[C@H](c2ccc3c(c2)OCO3)[C@@H](C(=O)O)[C@@H]1c1ccc(OC)cc1,13.8%
CCNC(=O)[C@@H]1CCCN1C(=O)[C@H](CCCN=C(N)N)NC(=O)[C@H](CC(C)C)NC(=O)[C@@H](C)NC(=O)[C@H](Cc1ccc(O)cc1)NC(=O)[C@H](CO)NC(=O)[C@H](Cc1c[nH]c2ccccc12)NC(=O)[C@H](Cc1cnc[nH]1)NC(=O)[C@@H]1CCC(=O)N1,9.02%
CC[C@H](CC#N)OC(=O)N[C@@H](C)c1cccc(NC(=O)Nc2ccc(-c3cnco3)c(OC)c2)c1,3.78%
COc1ccccc1N1CCN(CCCCN2C(=O)CCC2=O)CC1,4.42%
C[C@]12C=CC(=O)C=C1CC[C@@H]1[C@@H]2C(=O)C[C@@]2(C)[C@H]1CC[C@]2(O)C(=O)CO,14.1%
O=C(O)c1ccc[n+]([O-])c1,-0.25%
NCCc1ccc(O)c(O)c1,7.67%

# Set 6
# Target: Sal-like protein 4, full length isoform A (SALL4, Homo sapiens, UniProt Q9UJQ4, residues 1-1053)
# Chain of UniProt Q9UJQ4 (whole entry, looked up): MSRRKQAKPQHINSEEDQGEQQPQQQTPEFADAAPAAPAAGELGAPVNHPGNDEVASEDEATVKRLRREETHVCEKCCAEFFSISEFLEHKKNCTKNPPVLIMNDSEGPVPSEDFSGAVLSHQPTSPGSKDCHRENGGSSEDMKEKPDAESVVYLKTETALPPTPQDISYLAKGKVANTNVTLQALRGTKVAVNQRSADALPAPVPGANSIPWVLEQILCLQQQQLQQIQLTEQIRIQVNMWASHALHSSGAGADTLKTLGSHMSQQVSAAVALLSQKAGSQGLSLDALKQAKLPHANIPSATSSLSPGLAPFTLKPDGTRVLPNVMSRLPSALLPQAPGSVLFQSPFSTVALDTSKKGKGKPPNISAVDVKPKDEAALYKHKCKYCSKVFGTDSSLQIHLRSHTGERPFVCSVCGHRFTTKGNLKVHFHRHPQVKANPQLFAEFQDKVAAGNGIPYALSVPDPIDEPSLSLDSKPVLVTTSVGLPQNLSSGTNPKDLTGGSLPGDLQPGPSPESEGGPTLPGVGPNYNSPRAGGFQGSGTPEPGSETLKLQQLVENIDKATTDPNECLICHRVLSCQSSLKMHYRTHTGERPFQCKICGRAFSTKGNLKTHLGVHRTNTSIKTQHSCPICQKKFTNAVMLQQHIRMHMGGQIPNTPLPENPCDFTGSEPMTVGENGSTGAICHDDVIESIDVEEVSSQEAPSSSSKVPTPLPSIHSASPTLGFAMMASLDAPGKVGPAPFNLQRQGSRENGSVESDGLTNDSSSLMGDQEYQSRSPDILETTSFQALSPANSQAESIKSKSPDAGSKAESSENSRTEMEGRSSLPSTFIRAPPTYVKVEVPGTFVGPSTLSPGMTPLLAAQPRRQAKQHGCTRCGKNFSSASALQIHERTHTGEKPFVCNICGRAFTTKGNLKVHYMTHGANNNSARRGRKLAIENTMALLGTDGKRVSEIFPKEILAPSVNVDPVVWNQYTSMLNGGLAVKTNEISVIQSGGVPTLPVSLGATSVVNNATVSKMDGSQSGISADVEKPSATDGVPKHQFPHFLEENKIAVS
# Method: universal PBM
# Form: double-stranded DNA, one strand shown
# Medium: in vitro
# Tested at: 600 nM
# Setting: 8-mer, flanks averaged, mean of replicates
# Direction: higher = stronger binding
Strand,E-score
AAATTTTA,0.313
CGAGAAAG,0.0976
CTCAACTA,0.00239
ACTCTATA,0.24
CTAGTTTC,-0.0513
AGCAAGTG,-0.0159
AGTTTGCA,0.0527
AGCACCGG,-0.279

# For quick reference, copied from above (set 5):
SMILES,inhibition
CC1(C)CN(C(=O)c2ccc(-c3cccc4nc(NC(=O)C5CC5)nn34)cc2)C1,5.75%
O=C(OC(C(F)(F)F)C(F)(F)F)N1CCN(Cc2cccc(Oc3ccccc3)c2)CC1,1.61%
Cn1cnc(N)c2ncnc1-2,6.61%
Cc1c(F)cc(C(=O)NC2CC2)cc1-c1c(F)cn2c(C(C)(C)C)nnc2c1F,0.71%
COc1ccc2c(c1)c(C1=C(c3c[nH]c4ccccc34)C(=O)NC1=O)cn2CCCN(C)C,22.3%
CC(C)(C)N1CCC(c2ccccc2)(c2ccccc2)CC1,-6.35%
CN1C(=O)N(c2cc(Cl)cc(Cl)c2)C(=O)[C@@]1(C)Cc1ccc(Br)cc1,-0.49%
COc1ccc2c(C)nc(Nc3nc(C)c(C)c(=O)[nH]3)nc2c1,8.03%
